# Literature values that unrelated publications cite.
# ± marks the error that the study gave.
# Sequence of UniProt O00329 (whole entry, looked up): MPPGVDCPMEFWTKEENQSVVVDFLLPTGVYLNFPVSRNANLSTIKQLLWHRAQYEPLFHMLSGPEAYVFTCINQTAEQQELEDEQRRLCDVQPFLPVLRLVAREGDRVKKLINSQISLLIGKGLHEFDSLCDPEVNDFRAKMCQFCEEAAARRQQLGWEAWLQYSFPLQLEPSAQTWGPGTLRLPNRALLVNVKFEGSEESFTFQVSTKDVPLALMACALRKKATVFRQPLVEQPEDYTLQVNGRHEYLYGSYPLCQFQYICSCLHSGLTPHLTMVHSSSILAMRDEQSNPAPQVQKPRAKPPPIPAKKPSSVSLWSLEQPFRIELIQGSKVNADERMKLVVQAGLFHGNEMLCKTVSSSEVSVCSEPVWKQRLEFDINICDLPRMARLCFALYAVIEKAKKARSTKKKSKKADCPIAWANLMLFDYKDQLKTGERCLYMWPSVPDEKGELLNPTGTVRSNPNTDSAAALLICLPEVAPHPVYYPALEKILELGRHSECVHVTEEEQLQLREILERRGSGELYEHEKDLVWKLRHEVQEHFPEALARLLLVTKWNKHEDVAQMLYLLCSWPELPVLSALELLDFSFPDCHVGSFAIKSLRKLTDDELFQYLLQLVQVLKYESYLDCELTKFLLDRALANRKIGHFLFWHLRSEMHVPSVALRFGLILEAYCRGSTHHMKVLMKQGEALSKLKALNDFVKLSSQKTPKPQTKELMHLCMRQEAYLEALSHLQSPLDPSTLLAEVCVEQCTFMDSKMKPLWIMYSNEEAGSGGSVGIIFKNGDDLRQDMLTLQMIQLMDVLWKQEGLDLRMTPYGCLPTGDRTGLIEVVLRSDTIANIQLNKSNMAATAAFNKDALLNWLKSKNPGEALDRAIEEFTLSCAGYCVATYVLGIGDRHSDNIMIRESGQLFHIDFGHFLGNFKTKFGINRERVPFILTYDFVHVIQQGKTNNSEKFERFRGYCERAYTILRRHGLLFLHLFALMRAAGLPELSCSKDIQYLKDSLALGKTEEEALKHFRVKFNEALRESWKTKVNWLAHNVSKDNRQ
SMILES,target or system,test,system,setting,scale,measurement,result
Nc1cc(C(F)(F)F)c(-c2nc(N3CCOCC3)nc(N3CCOCC3)n2)cn1,CAL-27,,,,,GI50,1.52 µM
CCCC(CCC)C(=O)O,CALUX reporter cell lines,reporter gene,,"cell-total, maximum across",,EC10,110 µM
CC1(C)S[C@@H]2[C@H](NC(=O)[C@H](N)c3ccccc3)C(=O)N2[C@H]1C(=O)O,Klebsiella pneumoniae,,clinical isolate RKI-No_908/15,,,MIC,> 16 µg/mL
Cc1n[nH]c(C(=O)Nc2cnc3[nH]c(-c4ccccc4)cc3c2)c1C,KIT D816V cells,,,,,GI50,0.0061 µM
C=CCC(CCC)C(=O)O (stereo not shown),CALUX reporter cell lines,reporter gene,,"cell-total, maximum across",,EC10,110 µM
CNC(C)C1CCC(N)C(OC2C(N)CC(N)C(OC3OCC(C)(O)C(NC)C3O)C2O)O1 (stereo not shown),Klebsiella pneumoniae,,clinical isolate RKI-No_68/16,,,MIC,≤ 0.5 µg/mL
FC(F)(F)c1ccc(Nc2nc(N3CCOCC3)nc3c2CCN(c2ncccc2C(F)(F)F)CC3)cc1,TRPV1,"calcium flux, antagonist",HEK293,with: capsaicin,,IC50,0.006 µM
CCCC(C)C(=O)O (stereo not shown),CALUX reporter cell lines,reporter gene,,"cell-total, minimum across",,EC10,41 µM
CC(F)(F)c1cc(F)ccc1-c1sc2cc(O)ccc2c1Oc1ccc(/C=C/C(=O)O)cc1,MDA-MB-468,,,10 µM,,cell growth,no effect
Cc1c(C#N)cccc1[C@@H](C)Nc1nnc(C)c2cnc(N3CCOCC3)cc12,NCI-H508,"ERK phosphorylation, In-Cell Western, measured: phospho-ERK",,,,IC50,0.0225 ± 0.0193 µM
CCC(CC)C(=O)O,CALUX reporter cell lines,reporter gene,,"cell-total, maximum across",,EC10,41 µM
C[C@H]1COCCN1c1nc(-c2cnc(N)cc2C(F)F)nc(N2CCOCC2)n1,SK-N-AS,,,,,GI50,0.402 µM
C[C@@H]1CN(c2ncccc2C(F)(F)F)CCN1c1nc2ccc(C(C)(C)C)cc2[nH]1,TRPV1,"calcium flux, antagonist",HEK293,with: capsaicin,,IC50,0.0324 µM
O=c1[nH]c(=O)n([C@H]2C[C@H](O)[C@@H](CO)O2)cc1CCCC[18F],RG2 expressing HSV1-tk,,,2 h,relative to: HSV1-tk over wild-type RG2,uptake selectivity ratio,14.9 ± 4
CCCCCC(CCC)C(=O)O (stereo not shown),CALUX reporter cell lines,reporter gene,,"cell-total, minimum across",,EC10,3 µM
Nc1cccc2c1C(=O)N(C1CCC(=O)NC1=O)C2=O (stereo not shown),T cells,T-cell co-stimulation,,,relative to: over lenalidomide,relative potency,10 fold
O=C(c1ccc(Cl)cc1)N(Cc1ccccc1)C1CCCCC1,primary microglia,"measured: IL-1β, IL-6, TNF-α",,"concentration not given, with: LPS",,cytokine release,decreased
C=CC(=O)N1CCC(C(=O)NCC(=O)N2CCN(c3nc(-c4cnc(N)nc4C(F)F)nc(N4CCOCC4)n3)CC2)CC1,"Phosphatidylinositol 4,5-bisphosphate 3-kinase catalytic subunit delta isoform (PIK3CD, Homo sapiens, UniProt O00329)",kinase activity,,1 µM,,remaining activity,19%
CCCC(C)(C)C(=O)O,CALUX reporter cell lines,reporter gene,,"cell-total, minimum across",,EC10,24 µM
O=C(Nc1nccs1)c1cnn(-c2ccccc2)c1-n1cccc1,human monocytes,phagocytosis of anti-D RBCs,,"5 µM, commercial sample",,inhibition,> 69%
NC(=S)NN=Cc1ncccc1N,human cervical cancer cells,,,"concentration not given, clinically attainable concentrations and times, with: cisplatin plus radiation",,cell survival,10%
O=c1[nH]c(=O)n([C@@H]2O[C@H](CO)[C@@H](O)[C@@H]2F)cc1CCCC[18F],RG2 expressing HSV1-tk,,,2 h,relative to: HSV1-tk over wild-type RG2,uptake selectivity ratio,7.8 ± 4.3
C[C@@H](O)[C@H](NC(=O)[C@@H]1CSSC[C@H](NC(=O)[C@@H](Cc2ccccc2)NC(=O)CN2CCCN3CCN(CCCN(CC(=O)O)CC3)CC2)C(=O)N[C@@H](Cc2ccc(O)cc2)C(=O)N[C@H](Cc2c[nH]c3ccccc23)C(=O)N[C@@H](CCCCN)C(=O)N[C@@H]([C@@H](C)O)C(=O)N1)C(=O)O [copper-64 labelled],AR-42J rat pancreatic tumour cells,receptor binding,,,,Bmax,1600 fmol/mg
C=CCCC(=O)O,CALUX reporter cell lines,reporter gene,,"cell-total, maximum across",,EC10,76 µM
C/C(=N\c1ccc(O)cc1)c1cc2ccccc2n1C,DU-145,,,"concentration not given, with: EGF",,cell migration,decreased
C/C=C/C[C@H](C)[C@@H](OC)[C@@H](C)[C@H](O)C[C@H]1OC(=O)C=C[C@H]1CC,normal lung fibroblasts,,,concentration not given,,activity,inactive
Cc1ncccc1NC(=O)c1ccc2c(c1)C(=O)C[C@@H]1C[C@@](O)(c3ccccc3)[C@H](O)C[C@@]21Cc1ccccc1,A549,IL-6 release,,concentration not given,,inhibition,60 to 80%
O=c1[nH]c(=O)n([C@H]2C[C@H](O)[C@@H](CO)O2)cc1CCC[18F],RG2 expressing HSV1-tk,,,2 h,relative to: HSV1-tk over wild-type RG2,uptake selectivity ratio,20.5 ± 4.4
CCCCC(C)C(=O)O (stereo not shown),CALUX reporter cell lines,reporter gene,,"cell-total, maximum across",,EC10,4 µM
O=c1ncccn1[C@@H]1O[C@H](CO)[C@@H](O)[C@H]1O,TK6,,,,,IC20,20 µM
CO[C@]1(C(=O)N[C@@H](C)c2ccc(-n3cc(F)cn3)nc2)CC[C@H](c2nc(C)cc(Nc3cc(C)[nH]n3)n2)CC1,TT (RET C634W),cell growth,,,,GI50,0.015 µM

# Repeated from above:
SMILES,target or system,test,system,setting,scale,measurement,result
CCC(CC)C(=O)O,CALUX reporter cell lines,reporter gene,,"cell-total, maximum across",,EC10,41 µM
Cc1ncccc1NC(=O)c1ccc2c(c1)C(=O)C[C@@H]1C[C@@](O)(c3ccccc3)[C@H](O)C[C@@]21Cc1ccccc1,A549,IL-6 release,,concentration not given,,inhibition,60 to 80%
Nc1cc(C(F)(F)F)c(-c2nc(N3CCOCC3)nc(N3CCOCC3)n2)cn1,CAL-27,,,,,GI50,1.52 µM
